Assay results pooled from the literature.
Protocols differ between the studies behind these lines. ± gives the spread as reported.
Cell line: MCF7

The selectivity ratio of `N=C(N)NCCC[C@H](NC(=O)[C@H](Cc1c[nH]c2ccccc12)NC(=O)[C@H](CCC(N)=O)NC(=O)[C@@H](N)Cc1c[nH]c2ccccc12)C(=O)N[C@@H](Cc1c[nH]c2ccccc12)C(=O)N[C@@H](CCC(N)=O)C(=O)N[C@@H](Cc1c[nH]c2ccccc12)C(N)=O` is reported as 0.5 (baseline: fibroblast IC50 over MCF7 IC50).
Under “late apoptotic cells”, `COc1ccc(/C=C/C(=O)c2ccc(NC(=O)c3ccccc3CN3C(=O)c4ccccc4C3=O)cc2)c(OC)c1` is recorded as 45.2 fold (annexin V/PI staining; IC50, 24 h; baseline: untreated).
The apoptotic cells of `CC(C)(C)c1cc2c(O)c(c1)Cc1cc(C(C)(C)C)cc(c1OCC(=O)Nc1cncc3ccccc13)Cc1cc(C(C)(C)C)cc(c1O)Cc1cc(C(C)(C)C)cc(c1OCC(=O)Nc1cncc3ccccc13)COC2` is reported as 46.6 ± 1.25% (annexin V-FITC/PI flow cytometry; 10 µM, 24 h).
For `CC(=NNC(=S)NN=C(C(=NO)c1ccccc1)c1ccccc1)c1ccccc1`, “relative protein level” read 2.11 ± 0.06 (Western blot, refers to: cleaved caspase-3; IC50 concentration, 24 h; baseline: untreated).
`CCC(=C(c1ccc(Cl)cc1)c1ccc(OCCN2CCCCC2)cc1)c1ccccc1` gave an inhibition of 63.1% (cell growth or viability; 10 µM).
`CCCc1cc(O)nc(SCCOC(=O)[C@]2(C)CCC[C@]3(C)c4ccc(C(C)C)cc4CCC23)n1` (some centres unmarked) has an apoptotic cells of 43.3% (annexin V-FITC/PI flow cytometry; 15 µM, 48 h).
With `N.N.O=C(CCCc1ccccc1)[O][Pt]([Cl])([Cl])[O]C(=O)CCCc1ccccc1` the DNA-bound platinum was 16% (GF-AAS; 5 µM, 24 h; baseline: cellular platinum).
With `CC(=O)OC[C@H]1O[C@@H](Sc2sc(C(=O)c3ccc(Br)cc3)c(N)c2-c2nc3ccccc3s2)[C@H](OC(C)=O)[C@@H](OC(C)=O)[C@H]1OC(C)=O` the growth was 94.6% (SRB; 10 µM, 48 h; baseline: untreated).
`CN1CCN(c2ccc(C(=O)/C=C/Nc3ccc(S(N)(=O)=O)cc3)cc2)CC1` — result for “early apoptotic cells”: 13.9% (annexin V/PI; concentration not given).
`Cc1ccc(NC(=O)C2C(=O)C(c3ccccc3)c3ccc4c(c32)C(=O)c2ccccc2C4=O)cc1` (centres unmarked) gave a TGI of 67.4 µM (cell growth or viability).
For `FC(F)(F)C1(c2ccc(CN3CCN(C(c4ccccc4)c4ccc(Cl)cc4)CC3)cc2)CC1` (centres unmarked), the EC50 was 21 µM (72 h).
`O=C(c1ccc2ccccc2c1)c1cn(-c2ccccc2)nc1C1=Nn2c(Cc3nnc4n3N=C(c3nn(-c5ccccc5)cc3C(=O)c3ccc5ccccc5c3)CS4)nnc2SC1` has a mRNA level of 6.5 fold (RT-PCR, refers to: caspase-8; IC50, 48 h; baseline: untreated).
`NS(=O)(=O)c1ccc(/N=N/c2ccc(O)c(/C=N/c3cccc(O)c3)c2)cc1` gave a selectivity index of 1.43 (MTT; 72 h; baseline: MCF10A IC50 over MCF7 IC50).
For `Cc1ccc2oc(=O)c(-c3nc4cnccc4[nH]3)cc2c1`, the EC50 was 9.53 µM (cell growth or viability; 72 h).
For `CCCCCCCCCCCCCCCC(=O)N[C@@H](Cc1c[nH]cn1)C(=O)N[C@@H](CCCNC(=N)N)C(=O)N[C@@H](CCCCN)C(=O)N[C@@H](CCCNC(=N)N)C(=O)N[C@@H](CC(N)=O)C(=O)N[C@@H](CC(N)=O)C(=O)N[C@@H](CO)C(=O)N[C@@H](CCCNC(=N)N)C(=O)N[C@@H](CC(C)C)C(=O)NCC(=O)N[C@@H](CC(N)=O)C(=O)NCC(=O)N[C@H](C(=O)N[C@@H](CC(C)C)C(=O)N[C@@H](Cc1ccc(O)cc1)C(=O)N[C@@H](C)C(=O)N[C@@H](CO)C(=O)N[C@H](C(=O)N[C@@H](CC(N)=O)C(N)=O)C(C)C)C(C)C`, the TGI was 1.55 ± 0.1 µM (48 h, 1% FBS).
Under “γ-H2AX and 53BP1 levels”, `CN(C)c1ccc(/C=C/c2cc(/C=C3\Sc4ccccc4N3CCCN3CCCC3)c3ccccc3[n+]2C)cc1` is recorded as “increased” (Western blot; concentration not given, 36 h).
`COc1cc([C@@H]2c3cc4c(cc3[C@@H](OCc3cc(-c5ccc(C#N)cc5)no3)[C@H]3COC(=O)C23)OCO4)cc(OC)c1OC` (some centres unmarked) has a caspase-3/7 activation of 89.3% (Caspase-Glo 3/7; 20 µg/mL, 24 h).
The inhibition of `CC(=C(c1ccc(Cl)cc1)c1ccc(OCCN2CCCCC2)cc1)c1ccc(Cl)cc1` is reported as 19.5% (cell growth or viability; 10 µM).
With `O=C1c2ccccc2C(=O)c2c1ccc1c2C(C(=O)NCc2ccccc2)C(=O)C1c1ccccc1` (centres unmarked) the TGI was 18 µM (cell growth or viability).
`CCC[C@@H]1O[C@@H](Oc2c(-c3ccc(O)cc3)oc3cc(O)cc(O)c3c2=O)[C@H](O)[C@H](OC(C)=O)[C@H]1NC(C)=O`: “RSK substrate phosphorylation” “no effect” (inhibitor, immunoblot, refers to: phospho-eEF2, phospho-S6, cyclin D1; 100 µM, together with: PMA).
`FC(F)(F)c1cnc2[nH]cc(Cc3ccc(Cl)c(C(F)(F)F)c3)c2c1` gave an inhibition of 46% (cell growth or viability; 10 µM, 72 h).
`NS(=O)(=O)c1ccc(/N=N/c2ccc(O)c(/C=N/c3cc(Cl)ccc3O)c2)cc1` has a selectivity index of 1.75 (MTT; 72 h; baseline: MCF10A IC50 over MCF7 IC50).
Under “cell cycle distribution”, `CN1CCC2(CC1)C/C(=N\NC(=O)Nc1ccccc1)c1ccccc1O2` is recorded as 10.4% (PI staining, flow cytometry; concentration not given, %G2/M).
The inhibition of `FC(F)(F)c1cnc2[nH]cc(Cc3cccc(Cl)c3)c2c1` is reported as 29% (cell growth or viability; 10 µM, 72 h).
`O=C1c2c(O)cc(O)cc2-c2c(-c3ccc(O)cc3)oc3cc(O)cc1c23`: “shared upregulated proteins” 48% (label-free MS proteomics; concentration not given; baseline: tanespimycin upregulated proteins).
`CC(Cc1ccc(Cl)cc1)=C(c1ccc(O)cc1)c1ccc(Cl)cc1`: growth inhibition “no inhibition” (10 µM).
`O=C(O)C=Cc1ccc(C(=C2CCCCC2)c2ccc(O)cc2)cc1`: “pS2 mRNA level” “no effect” (antagonist, real-time PCR; 1 µM, together with: 1 nM estradiol).
The EC50 of `CC[C@H]([C@H](CC)c1ccc(O)cc1)[C@@H](C)c1ccc(O)cc1` is reported as 9.6e-06 µM (cell growth or viability, ATP luminescence; 5 days).
`N=C(N)NCCC[C@H](NC(=O)[C@H](Cc1c[nH]c2ccccc12)NC(=O)[C@H](CCC(N)=O)NC(=O)[C@H](Cc1c[nH]c2ccccc12)NC(=O)[C@H](CCCNC(=N)N)NC(=O)[C@H](Cc1c[nH]c2ccccc12)NC(=O)[C@H](CCC(N)=O)NC(=O)[C@H](Cc1c[nH]c2ccccc12)NC(=O)[C@@H](N)CCCNC(=N)N)C(N)=O` gave a caspase activation of ~80% (flow cytometry; concentration not given, 2 h, extrinsic pathway).
For `COc1ccc(NC(=O)CCc2nc3cc(Cl)ccc3[nH]c2=O)cc1`, “early apoptotic cells” read 2.05% (annexin V-FITC; concentration not given).
The growth inhibition of `CCCCCCCCCC1N=C(N)N=C(N)N1c1ccc(Cl)cc1.Cl` (racemic) is reported as ≤ 100% (concentration not given).
`CC(Cc1ccc(Cl)cc1)=C(c1ccc(Cl)cc1)c1ccc(OCCCN(C)C)cc1` has an inhibition of 1.65% (cell growth or viability; 10 µM).
`COc1ccc(-c2nnc(-c3cc(-c4ccccc4)n(-c4ccc(S(N)(=O)=O)cc4)n3)o2)cc1` gave a mRNA level of 5.57 fold (real-time PCR, refers to: p53; concentration not given; baseline: untreated cells).
Under “late apoptotic cells”, `CC(=O)N[C@H](CCCNC(=N)N)C(=O)N[C@H](CCCCN)C(=O)N[C@H](Cc1ccc(O)cc1)C(=O)N[C@H](CS)C(N)=O` is recorded as 12.5% (Annexin V/PI flow cytometry; 50 nM, 24 h).
With `NS(=O)(=O)c1ccc(/N=N/c2ccc(O)c(C=O)c2)cc1` the selectivity index was 2.21 (MTT; 48 h; baseline: MCF10A IC50 over MCF7 IC50).
For `COc1cc2c(=O)c(-c3ccc4c(c3)OCO4)coc2c2c1OC(C)(C)C=C2`, the apoptotic cells was 15.9% (annexin V/PI flow cytometry; 2.5 µM, 48 h).
With `N=C(N)NCCC[C@H](NC(=O)[C@H](Cc1c[nH]c2ccccc12)NC(=O)[C@H](CCC(N)=O)NC(=O)[C@H](Cc1c[nH]c2ccccc12)NC(=O)[C@H](CCCNC(=N)N)NC(=O)[C@H](Cc1c[nH]c2ccccc12)NC(=O)[C@H](CCC(N)=O)NC(=O)[C@@H](N)Cc1c[nH]c2ccccc12)C(N)=O` the selectivity ratio was > 1.1 (baseline: erythrocyte IC50 over MCF7 IC50).
`COc1cccc2c1C(=O)c1c(O)c3c(c(O)c1C2=O)C[C@@](O)(C(=O)CO)C[C@@H]3O[C@H]1C[C@H](N)[C@H](O)[C@H](C)O1` — result for “intracellular ROS level”: “increased” (DCFDA fluorescence; concentration not given, 4 h; baseline: DMSO).
With `NS(=O)(=O)c1ccc(/N=N/c2ccc(O)c(/C=N/c3nccs3)c2)cc1` the selectivity index was 3.76 (MTT; 48 h; baseline: MCF10A IC50 over MCF7 IC50).
`O=C(NCCCNc1n[n+]([O-])c2ccccc2[n+]1[O-])C(F)(F)F`: “hypoxia cytotoxicity ratio” 5.7 (MTT; baseline: IC50 normoxia over IC50 hypoxia).
With `CCC(=C(c1ccc(Cl)cc1)c1ccc(OCCN2CCOCC2)cc1)c1ccc(Cl)cc1` the inhibition was 24.8% (cell growth or viability; 10 µM).
For `CC(C)(C)C12CC(CN3CCN(C(c4ccccc4)c4ccc(Cl)cc4)CC3)(C1)C2` (centres unmarked), the EC50 was 16 µM (lipid droplet formation, Nile Red staining; 72 h).
Under “hTERT protein level”, `C[n+]1c(/C=C/c2ccc(N(c3ccccc3)c3ccccc3)cc2)cc(/C=C2\Sc3ccccc3N2CCCN2CCCC2)c2ccccc21` is recorded as “decreased” (Western blot; concentration not given, 36 h).
The apoptotic cells of `Nc1ccccc1NC(=O)c1cnccn1` is reported as 15.6 ± 1.7% (annexin V/PI flow cytometry; IC50, 48 h).

Repeated from above:
`CC(Cc1ccc(Cl)cc1)=C(c1ccc(O)cc1)c1ccc(Cl)cc1`: growth inhibition “no inhibition” (10 µM).
`O=C(O)C=Cc1ccc(C(=C2CCCCC2)c2ccc(O)cc2)cc1`: “pS2 mRNA level” “no effect” (antagonist, real-time PCR; 1 µM, together with: 1 nM estradiol).
The EC50 of `CC[C@H]([C@H](CC)c1ccc(O)cc1)[C@@H](C)c1ccc(O)cc1` is reported as 9.6e-06 µM (cell growth or viability, ATP luminescence; 5 days).
`N=C(N)NCCC[C@H](NC(=O)[C@H](Cc1c[nH]c2ccccc12)NC(=O)[C@H](CCC(N)=O)NC(=O)[C@H](Cc1c[nH]c2ccccc12)NC(=O)[C@H](CCCNC(=N)N)NC(=O)[C@H](Cc1c[nH]c2ccccc12)NC(=O)[C@H](CCC(N)=O)NC(=O)[C@H](Cc1c[nH]c2ccccc12)NC(=O)[C@@H](N)CCCNC(=N)N)C(N)=O` gave a caspase activation of ~80% (flow cytometry; concentration not given, 2 h, extrinsic pathway).
